Assay results from different studies.
Every numbered part comes from another study and shows a few of its results, in no order. ± marks the error that the study gave.
Chain of UniProt P9WI81 (whole entry, looked up): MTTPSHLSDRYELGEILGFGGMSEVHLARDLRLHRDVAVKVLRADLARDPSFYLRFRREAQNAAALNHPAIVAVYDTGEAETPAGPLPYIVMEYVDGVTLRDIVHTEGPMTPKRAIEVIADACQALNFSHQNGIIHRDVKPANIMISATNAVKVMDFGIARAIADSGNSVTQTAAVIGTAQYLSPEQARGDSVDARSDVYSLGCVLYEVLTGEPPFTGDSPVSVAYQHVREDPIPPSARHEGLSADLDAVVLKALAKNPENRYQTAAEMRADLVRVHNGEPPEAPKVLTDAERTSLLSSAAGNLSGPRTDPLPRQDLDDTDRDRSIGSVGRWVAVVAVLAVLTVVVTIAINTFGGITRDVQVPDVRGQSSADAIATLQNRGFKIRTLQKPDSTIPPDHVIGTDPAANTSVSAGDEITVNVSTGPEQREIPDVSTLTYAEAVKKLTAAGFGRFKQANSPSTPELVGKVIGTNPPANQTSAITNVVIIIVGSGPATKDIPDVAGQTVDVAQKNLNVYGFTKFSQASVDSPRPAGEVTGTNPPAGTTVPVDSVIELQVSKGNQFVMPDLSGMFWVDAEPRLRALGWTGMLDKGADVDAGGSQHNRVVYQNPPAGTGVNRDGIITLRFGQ
Chain of UniProt P41143 (whole entry, looked up): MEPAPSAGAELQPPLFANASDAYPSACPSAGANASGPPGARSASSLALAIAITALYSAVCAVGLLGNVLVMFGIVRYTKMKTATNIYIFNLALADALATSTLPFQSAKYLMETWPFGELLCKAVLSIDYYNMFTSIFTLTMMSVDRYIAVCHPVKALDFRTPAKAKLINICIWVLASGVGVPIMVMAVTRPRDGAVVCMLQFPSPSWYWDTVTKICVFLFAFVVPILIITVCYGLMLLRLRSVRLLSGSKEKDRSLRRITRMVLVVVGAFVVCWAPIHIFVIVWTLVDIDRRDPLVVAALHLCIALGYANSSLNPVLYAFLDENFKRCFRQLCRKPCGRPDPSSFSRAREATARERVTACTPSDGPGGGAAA
Chain of UniProt P18825 (whole entry, looked up): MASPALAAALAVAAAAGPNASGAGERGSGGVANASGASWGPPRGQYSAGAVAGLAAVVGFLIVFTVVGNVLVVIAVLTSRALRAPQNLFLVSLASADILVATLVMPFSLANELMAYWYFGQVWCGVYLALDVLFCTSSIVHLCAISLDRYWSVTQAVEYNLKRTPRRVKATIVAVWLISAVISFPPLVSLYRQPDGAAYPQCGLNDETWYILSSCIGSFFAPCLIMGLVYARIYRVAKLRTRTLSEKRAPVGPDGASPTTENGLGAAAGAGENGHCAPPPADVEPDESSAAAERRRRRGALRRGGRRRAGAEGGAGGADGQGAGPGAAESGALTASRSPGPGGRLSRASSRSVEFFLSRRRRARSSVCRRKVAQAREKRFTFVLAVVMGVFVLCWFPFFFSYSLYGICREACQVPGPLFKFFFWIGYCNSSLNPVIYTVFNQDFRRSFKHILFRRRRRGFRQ
Chain of UniProt P62344 (whole entry, looked up): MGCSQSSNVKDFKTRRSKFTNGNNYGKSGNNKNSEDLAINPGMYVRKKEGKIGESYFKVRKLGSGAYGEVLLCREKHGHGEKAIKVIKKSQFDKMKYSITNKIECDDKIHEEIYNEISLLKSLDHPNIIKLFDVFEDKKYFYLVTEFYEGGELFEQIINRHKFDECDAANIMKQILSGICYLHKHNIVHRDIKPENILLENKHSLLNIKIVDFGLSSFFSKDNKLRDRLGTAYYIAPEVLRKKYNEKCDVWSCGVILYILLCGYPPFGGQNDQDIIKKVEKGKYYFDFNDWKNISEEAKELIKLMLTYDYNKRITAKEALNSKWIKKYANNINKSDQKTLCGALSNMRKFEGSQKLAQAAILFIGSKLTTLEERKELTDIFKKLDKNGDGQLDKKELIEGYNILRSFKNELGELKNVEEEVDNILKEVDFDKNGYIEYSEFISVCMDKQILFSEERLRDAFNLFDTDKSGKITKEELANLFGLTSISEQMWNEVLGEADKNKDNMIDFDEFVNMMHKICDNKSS

Series 1
Target: chymotrypsin
Observed: enzyme activity
Mode: inhibitor
Tested at: 10 µM
Notes: with DTT
Measurement: inhibition
O=[N+]([O-])c1ccc(Sc2cccc[n+]2[O-])c2nonc12: 4.9%
c1cnc(SCc2cccnc2)nc1: 1.2%
C[n+]1c2cc(N)ccc2cc2ccc(N)cc21.Nc1ccc2cc3ccc(N)cc3nc2c1: 22%
COc1ccc([N+](=O)[O-])c(S(=O)(=O)c2ccc(Cl)cc2)n1: 11.4%
Nc1ccc(O)c2ncccc12: 5%
Cc1ccc(-n2sc3ccccc3c2=O)cc1: 1.1%
COc1ccc2[nH]c([S+]([O-])Cc3ncc(C)c(OC)c3C)nc2c1 (stereo not shown): 8.1%
O=C(NC(=S)N1CCCc2ccccc21)c1ccccc1: 5.4%
O=C1C(Cl)=C(N2CCOCC2)C(=O)N1c1ccc(Cl)c(Cl)c1: 7.2%

Series 2
Cell line: HEK-293T
Observed: pseudovirus infection
Method: FDA-approved drug library counter-screen
Organism: VSV pseudotyped with VSV-G
Tested at: 10 µM
Time: 16 h
Reference: vehicle-treated
Measurement: GFP-positive cells
CC(=O)N1CCN(c2ccc(OCC3COC(Cn4ccnc4)(c4ccc(Cl)cc4Cl)O3)cc2)CC1 (stereo not shown): 121%
CCCCCOC(=O)Nc1nc(=O)n([C@@H]2O[C@H](C)[C@@H](O)[C@H]2O)cc1F: 108%
Cc1cccc(Nc2ccncc2S(=O)(=O)NC(=O)NC(C)C)c1: 101%
CCC(=O)OCC(=O)[C@@]1(OC(=O)CC)[C@@H](C)C[C@H]2[C@@H]3CCC4=CC(=O)C=C[C@]4(C)[C@@]3(F)[C@@H](O)C[C@@]21C: 102%
CCCOc1ccc(C(=O)OCCN(CC)CC)cc1N: 100%
CCCNS(=O)(=O)Nc1ncnc(OCCOc2ncc(Br)cn2)c1-c1ccc(Br)cc1: 95%
CCCCC1C(=O)N(c2ccccc2)N(c2ccccc2)C1=O: 104%
Nc1ccc(S(=O)(=O)NC(=O)c2ccccc2)cc1: 112%
CO[C@H]1C[C@@H]2CC[C@@H](C)[C@@](O)(O2)C(=O)C(=O)N2CCCC[C@H]2C(=O)O[C@H]([C@H](C)C[C@@H]2CC[C@@H](O)[C@H](OC)C2)CC(=O)[C@H](C)/C=C(\C)[C@@H](O)[C@@H](OC)C(=O)[C@H](C)C[C@H](C)/C=C/C=C/C=C/1C: 84%
COc1ccc(C(CN(C)C)C2(O)CCCCC2)cc1 (stereo not shown): 63.5%
CN(C)CCC(c1ccccc1)c1ccccn1 (stereo not shown): 120%
COc1ccc(C[C@@H]2c3cc(OC)c(OC)cc3CC[N@+]2(C)CCC(=O)OCCCCCOC(=O)CC[N@@+]2(C)CCc3cc(OC)c(OC)cc3[C@H]2Cc2ccc(OC)c(OC)c2)cc1OC: 114%
COc1cc2nc(N(C)CCCNC(=O)C3CCCO3)nc(N)c2cc1OC (stereo not shown): 117%
NC(=O)N1c2ccccc2C=Cc2ccccc21: 87%
NC(=O)c1cnccn1: 104%
CC(=O)NCCCS(=O)(=O)O: 126%
OC(CNCC(O)C1CCc2cc(F)ccc2O1)C1CCc2cc(F)ccc2O1 (stereo not shown): 99.7%

Series 3
Target: DNA polymerase theta, ATPase domain (POLQ, Homo sapiens, UniProt O75417)
Chain of UniProt O75417 (whole entry, unmodified, looked up): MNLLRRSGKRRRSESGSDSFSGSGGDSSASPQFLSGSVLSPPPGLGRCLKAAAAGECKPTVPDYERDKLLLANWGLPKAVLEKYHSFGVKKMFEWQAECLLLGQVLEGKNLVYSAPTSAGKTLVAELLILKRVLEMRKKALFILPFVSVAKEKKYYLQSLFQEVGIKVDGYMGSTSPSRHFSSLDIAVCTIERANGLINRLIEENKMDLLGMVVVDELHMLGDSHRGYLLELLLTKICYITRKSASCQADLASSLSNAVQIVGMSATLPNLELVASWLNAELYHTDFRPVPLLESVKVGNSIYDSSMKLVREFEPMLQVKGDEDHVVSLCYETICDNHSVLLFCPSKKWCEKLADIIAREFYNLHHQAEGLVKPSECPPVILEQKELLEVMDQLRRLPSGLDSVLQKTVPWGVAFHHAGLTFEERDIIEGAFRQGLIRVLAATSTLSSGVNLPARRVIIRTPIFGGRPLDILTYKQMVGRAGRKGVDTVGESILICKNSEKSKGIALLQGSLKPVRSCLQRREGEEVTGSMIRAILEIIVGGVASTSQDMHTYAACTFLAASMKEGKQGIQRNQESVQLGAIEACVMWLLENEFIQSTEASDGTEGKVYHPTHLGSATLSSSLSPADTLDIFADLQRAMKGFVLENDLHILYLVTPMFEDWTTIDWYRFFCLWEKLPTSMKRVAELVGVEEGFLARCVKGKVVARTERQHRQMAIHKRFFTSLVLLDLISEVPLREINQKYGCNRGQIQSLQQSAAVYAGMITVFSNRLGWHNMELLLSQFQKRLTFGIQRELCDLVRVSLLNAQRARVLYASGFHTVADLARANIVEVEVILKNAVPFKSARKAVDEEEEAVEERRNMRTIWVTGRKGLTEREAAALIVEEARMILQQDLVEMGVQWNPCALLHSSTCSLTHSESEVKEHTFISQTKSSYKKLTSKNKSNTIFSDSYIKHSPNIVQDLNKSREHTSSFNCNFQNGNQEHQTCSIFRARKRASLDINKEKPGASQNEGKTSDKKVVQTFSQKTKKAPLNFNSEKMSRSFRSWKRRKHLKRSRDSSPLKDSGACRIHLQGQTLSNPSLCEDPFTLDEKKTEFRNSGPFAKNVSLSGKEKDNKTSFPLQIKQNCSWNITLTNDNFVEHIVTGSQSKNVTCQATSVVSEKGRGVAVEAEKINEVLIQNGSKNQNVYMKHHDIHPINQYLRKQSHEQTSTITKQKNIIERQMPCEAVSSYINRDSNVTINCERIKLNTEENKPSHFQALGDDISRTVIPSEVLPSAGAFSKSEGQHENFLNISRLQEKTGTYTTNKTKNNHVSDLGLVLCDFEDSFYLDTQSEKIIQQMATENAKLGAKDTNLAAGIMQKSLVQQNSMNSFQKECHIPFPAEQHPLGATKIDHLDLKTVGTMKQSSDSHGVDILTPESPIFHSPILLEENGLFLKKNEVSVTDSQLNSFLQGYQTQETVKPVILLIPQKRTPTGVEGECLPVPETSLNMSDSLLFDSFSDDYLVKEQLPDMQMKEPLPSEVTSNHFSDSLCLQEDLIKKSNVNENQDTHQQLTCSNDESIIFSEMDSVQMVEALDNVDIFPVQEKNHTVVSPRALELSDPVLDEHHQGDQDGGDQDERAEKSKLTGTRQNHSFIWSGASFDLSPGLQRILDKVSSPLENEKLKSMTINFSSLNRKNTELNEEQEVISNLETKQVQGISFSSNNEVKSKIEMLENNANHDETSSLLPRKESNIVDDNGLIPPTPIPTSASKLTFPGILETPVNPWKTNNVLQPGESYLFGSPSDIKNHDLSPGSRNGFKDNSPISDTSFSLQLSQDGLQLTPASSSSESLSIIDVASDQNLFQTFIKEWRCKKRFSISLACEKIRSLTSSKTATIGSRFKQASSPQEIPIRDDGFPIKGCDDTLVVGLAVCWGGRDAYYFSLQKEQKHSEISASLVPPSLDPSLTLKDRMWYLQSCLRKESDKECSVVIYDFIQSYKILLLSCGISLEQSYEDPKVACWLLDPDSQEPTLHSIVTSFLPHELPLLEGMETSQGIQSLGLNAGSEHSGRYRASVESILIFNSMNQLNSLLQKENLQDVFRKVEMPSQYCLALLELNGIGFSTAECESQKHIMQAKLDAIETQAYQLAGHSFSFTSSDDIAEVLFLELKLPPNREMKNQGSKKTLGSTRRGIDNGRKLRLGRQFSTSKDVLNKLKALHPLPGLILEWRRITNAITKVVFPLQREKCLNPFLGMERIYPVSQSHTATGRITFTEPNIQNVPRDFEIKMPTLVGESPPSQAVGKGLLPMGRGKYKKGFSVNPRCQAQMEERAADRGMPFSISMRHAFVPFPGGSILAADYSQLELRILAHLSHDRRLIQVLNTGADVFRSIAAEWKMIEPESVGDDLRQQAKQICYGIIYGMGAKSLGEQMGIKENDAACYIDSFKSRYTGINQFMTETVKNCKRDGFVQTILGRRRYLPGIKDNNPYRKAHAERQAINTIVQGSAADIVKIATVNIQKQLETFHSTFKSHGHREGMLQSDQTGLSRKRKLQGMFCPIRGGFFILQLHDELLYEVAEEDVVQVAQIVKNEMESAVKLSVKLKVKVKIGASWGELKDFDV
Observed: enzyme activity
Mode: inhibitor
Tested at: 77 µM
Reference: untreated
Measurement: remaining activity
NN=C(N)N: 99.7%
CCN1C[C@]2(COC)CC[C@H](OC)[C@@]34C1[C@]1(OCO[C@@]15C[C@H](OC)[C@H]1C[C@@H]3[C@@H]5[C@H]1OC)[C@@H](O)[C@H]24: 101%
C[C@@H]1CC[C@@]2(NC1)O[C@H]1C[C@H]3[C@@H]4CC=C5C[C@@H](O)CC[C@]5(C)[C@H]4CC[C@]3(C)[C@H]1[C@@H]2C: 99.6%
CO[C@H]1CC[C@@H](O[C@H]2C[C@H]([C@]3(C)CC[C@]4(C[C@H](O)[C@@H](C)[C@@H]([C@@H](C)/C=C(\C)C(=O)[C@H](C)C[C@H](C)C(=O)O)O4)O3)O[C@]3(O[C@@H]([C@H]4O[C@@](O)(CO)[C@H](C)C[C@@H]4C)C[C@@H]3C)[C@@H]2C)O[C@@H]1C: 99.2%

Single results of other studies
CNCc1ccccc1-c1csc([C@H](C)Nc2nc(C)nc3cc(OC)c(OC)cc23)c1
remaining binding (Serine/threonine-protein kinase PknB (pknB, Mycobacterium tuberculosis, UniProt P9WI81); cell-free assay, competition with immobilised ligand; 1 µM): 90%

CCN(CC)C(=O)c1ccc(C2=CC3(CCNCC3)Oc3cccc(O)c32)cc1
Emax (Delta-type opioid receptor, with Gi2 (OPRD1, Homo sapiens, UniProt P41143); human cells): 102 ± 3%

CNC(=O)c1cc(C(=O)NC2CC2)cn(Cc2ccccc2)c1=O
inhibition (Alpha-2C adrenergic receptor (ADRA2C, Homo sapiens, UniProt P18825); binding, radioligand binding; 10 µM): 0.69%

CN([C@@H]1CCc2c(CC(=O)O)c3cc(S(C)(=O)=O)ccc3n2C1)S(=O)(=O)c1ccc(F)cc1
remaining binding (Calcium-dependent protein kinase 1 (CDPK1, Plasmodium falciparum, UniProt P62344); cell-free assay, competition with immobilised ligand; 1 µM): 75%

For quick reference, copied from above (series 2):
COc1cc2nc(N(C)CCCNC(=O)C3CCCO3)nc(N)c2cc1OC (stereo not shown): 117%
NC(=O)N1c2ccccc2C=Cc2ccccc21: 87%
NC(=O)c1cnccn1: 104%
CC(=O)NCCCS(=O)(=O)O: 126%
OC(CNCC(O)C1CCc2cc(F)ccc2O1)C1CCc2cc(F)ccc2O1 (stereo not shown): 99.7%
